Measurements collected from several papers.
Protocols differ between the studies behind these lines.
HUNK: Hormonally up-regulated neu tumor-associated kinase (HUNK, Homo sapiens, UniProt P57058)
Chain of UniProt P57058 (whole entry, looked up): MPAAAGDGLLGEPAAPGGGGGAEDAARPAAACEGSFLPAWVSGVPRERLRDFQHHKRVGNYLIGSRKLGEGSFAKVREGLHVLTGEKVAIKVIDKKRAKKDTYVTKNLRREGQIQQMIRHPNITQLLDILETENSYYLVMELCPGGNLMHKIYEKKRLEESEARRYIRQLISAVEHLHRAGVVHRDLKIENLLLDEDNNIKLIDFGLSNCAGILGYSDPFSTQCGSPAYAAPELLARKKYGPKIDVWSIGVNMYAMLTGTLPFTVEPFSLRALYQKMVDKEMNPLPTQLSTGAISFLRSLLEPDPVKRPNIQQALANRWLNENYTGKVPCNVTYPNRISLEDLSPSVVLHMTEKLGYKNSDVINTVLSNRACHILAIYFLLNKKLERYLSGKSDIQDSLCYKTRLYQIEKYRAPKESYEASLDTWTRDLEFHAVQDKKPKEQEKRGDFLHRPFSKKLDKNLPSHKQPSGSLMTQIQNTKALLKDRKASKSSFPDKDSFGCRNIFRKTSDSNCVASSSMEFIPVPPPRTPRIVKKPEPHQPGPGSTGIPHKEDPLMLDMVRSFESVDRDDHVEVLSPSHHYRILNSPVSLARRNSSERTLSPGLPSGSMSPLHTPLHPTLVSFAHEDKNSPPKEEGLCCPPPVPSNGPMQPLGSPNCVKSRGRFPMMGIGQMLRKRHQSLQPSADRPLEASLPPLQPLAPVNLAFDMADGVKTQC
Chain of UniProt Q92772 (whole entry, looked up): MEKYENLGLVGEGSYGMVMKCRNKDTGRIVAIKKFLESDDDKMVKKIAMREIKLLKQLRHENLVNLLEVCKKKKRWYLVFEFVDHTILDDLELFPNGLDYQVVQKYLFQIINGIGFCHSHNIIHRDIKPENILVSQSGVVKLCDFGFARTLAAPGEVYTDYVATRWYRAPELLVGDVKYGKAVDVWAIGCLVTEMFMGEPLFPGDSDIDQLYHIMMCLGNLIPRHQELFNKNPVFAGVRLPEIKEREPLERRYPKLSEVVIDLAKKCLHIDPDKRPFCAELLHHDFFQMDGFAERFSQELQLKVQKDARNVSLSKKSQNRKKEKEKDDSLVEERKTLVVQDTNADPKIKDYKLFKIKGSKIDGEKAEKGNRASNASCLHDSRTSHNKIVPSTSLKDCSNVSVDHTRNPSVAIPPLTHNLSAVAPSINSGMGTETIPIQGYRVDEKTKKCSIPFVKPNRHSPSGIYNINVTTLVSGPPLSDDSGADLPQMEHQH
Chain of UniProt Q99986 (whole entry, looked up): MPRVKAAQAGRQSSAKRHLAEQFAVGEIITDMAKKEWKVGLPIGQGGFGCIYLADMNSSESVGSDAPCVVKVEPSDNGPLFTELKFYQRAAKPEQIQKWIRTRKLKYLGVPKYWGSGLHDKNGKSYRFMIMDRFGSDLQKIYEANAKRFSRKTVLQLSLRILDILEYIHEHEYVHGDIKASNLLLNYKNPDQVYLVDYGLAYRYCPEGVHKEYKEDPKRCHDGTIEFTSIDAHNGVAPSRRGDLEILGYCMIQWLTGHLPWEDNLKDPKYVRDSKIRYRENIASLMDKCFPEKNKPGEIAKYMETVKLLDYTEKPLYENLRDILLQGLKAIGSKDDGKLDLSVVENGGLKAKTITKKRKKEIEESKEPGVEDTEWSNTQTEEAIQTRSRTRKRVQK
Chain of UniProt Q9H3Y6 (whole entry, looked up): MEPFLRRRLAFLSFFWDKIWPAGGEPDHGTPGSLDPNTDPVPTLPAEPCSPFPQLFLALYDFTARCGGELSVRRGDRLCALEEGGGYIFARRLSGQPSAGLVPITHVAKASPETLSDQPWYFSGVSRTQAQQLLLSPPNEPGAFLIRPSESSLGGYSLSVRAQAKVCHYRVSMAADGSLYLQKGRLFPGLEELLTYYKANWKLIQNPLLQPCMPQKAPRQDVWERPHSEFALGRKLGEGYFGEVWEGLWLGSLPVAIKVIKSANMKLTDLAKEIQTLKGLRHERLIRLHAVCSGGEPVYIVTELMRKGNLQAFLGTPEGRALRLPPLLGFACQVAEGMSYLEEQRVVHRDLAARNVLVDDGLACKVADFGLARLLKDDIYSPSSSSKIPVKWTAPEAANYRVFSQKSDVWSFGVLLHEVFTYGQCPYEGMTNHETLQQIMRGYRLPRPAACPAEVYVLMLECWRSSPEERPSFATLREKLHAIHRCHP
Chain of UniProt Q13177 (whole entry, looked up): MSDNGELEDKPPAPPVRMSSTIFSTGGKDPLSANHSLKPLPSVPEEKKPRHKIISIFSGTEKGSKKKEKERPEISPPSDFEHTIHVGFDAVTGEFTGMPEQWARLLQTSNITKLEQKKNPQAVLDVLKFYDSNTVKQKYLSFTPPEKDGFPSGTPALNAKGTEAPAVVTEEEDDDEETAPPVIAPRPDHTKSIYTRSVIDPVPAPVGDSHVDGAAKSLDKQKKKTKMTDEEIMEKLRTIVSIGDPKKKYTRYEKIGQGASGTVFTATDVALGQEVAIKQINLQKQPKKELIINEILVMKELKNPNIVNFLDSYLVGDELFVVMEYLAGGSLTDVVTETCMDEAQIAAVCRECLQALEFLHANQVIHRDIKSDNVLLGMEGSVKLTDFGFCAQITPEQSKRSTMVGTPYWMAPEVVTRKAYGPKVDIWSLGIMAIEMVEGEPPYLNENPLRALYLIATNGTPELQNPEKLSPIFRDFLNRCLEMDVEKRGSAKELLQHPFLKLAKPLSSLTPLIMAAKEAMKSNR

`COc1cc(/C=C/C(=O)C(=Cc2ccc(O)cc2)C(=O)/C=C/c2ccc(O)c(OC)c2)ccc1O` has a viability of 80.3% (WRL68; cell growth or viability, MTT; 49.5 µg/mL, 48 h).
With `Cc1sc2c(=O)n(O)c(=O)[nH]c2c1C` the viability was 115% (HFF; cell growth or viability, MTS; 10 µM, 7 days).
`CCNc1nc(Nc2ccc(F)c(Cl)c2)c2ccccc2n1` has a viability of 2.63% (Vero; cell growth or viability, MTT; 1000 µg/mL).
For `COc1cccc(OC)c1-c1cc(C(=O)NC2(C(=O)O)C3CC4CC(C3)CC2C4)nn1-c1ccc(C(=O)N(C)CCCN(C)CCCN(C)C(=O)CN2CCN(CC(=O)[O-])CCN(CC(=O)[O-])CCN(CC(=O)[O-])CC2)cc1C(C)C.[177Lu+3]` (stereo not shown), the tracer uptake was 3.8 %ID/g (HT-29 tumour model; host not given, lung; intravenous, 4 h, tumour-bearing).
`O=c1[nH]c2sc3c(c2c(=O)n1O)CCC3` gave a viability of 76% (HFF; cell growth or viability, MTS; 10 µM, 7 days).
`O=C1CC[C@H](N2Cc3cc(N4CCN(CC5CCN(c6ccc([C@@H]7c8ccc(O)cc8CC[C@@H]7c7ccccc7)cc6)CC5)CC4)ccc3C2=O)C(=O)N1` gave a bioavailability of 26.6% (male Sprague-Dawley rat, plasma; oral, 20 mg/kg).
The viability of `CC1(F)CN(C(=O)Cn2c(=O)c(C(=O)NCc3ccc(Cl)cc3)cc3nc(N4CCNC4=O)cnc32)C1` is reported as 91% (MRC5; cell growth or viability, CCK-8; 40 µM).
`COc1cc(-c2cncc3c2CN(C)Cc2cc(N4CCNCC4)ccc2-3)cc(OC)c1OC` has a remaining activity of 113% (Serine/threonine-protein kinase VRK1 (VRK1, Homo sapiens, UniProt Q99986); enzyme activity, inhibitor; 1 µM).
`Cc1noc(NS(=O)(=O)c2ccc(N=NN(O)c3ccccc3)cc2)c1C` gave an inhibition of 99.9% (ABTS scavenging; 300 µg/mL).
With `Nc1ccn([C@@H]2O[C@H](CO)[C@@H](O)C2(F)F)c(=O)n1` the viability was 88.6% (MDA-MB-231; cell growth or viability, MTT; 0.625 µg/mL, 24 h).
With `CNC(=O)c1cc(Oc2ccc(NC(=O)Nc3ccc(Cl)c(C(F)(F)F)c3)cc2)ccn1` the viability was 65.1% (WISH; cell growth or viability, MTT; 6.25 µM, 24 h).
`C=CC(=O)N1CCC(COCC(=O)N2CCN(c3nc(-c4cnc(N)nc4C(F)F)nc(N4CCOC[C@@H]4C)n3)CC2)CC1` has a remaining binding of 100% (Cyclin-dependent kinase-like 2 (CDKL2, Homo sapiens, UniProt Q92772); binding, competition with immobilised ligand; 1 µM).
`COc1cc(/C=C/C(=O)/C=C/c2ccc(O)c(OC)c2)ccc1O` has a viability of 84% (WRL68; cell growth or viability, MTT; 0.8 µg/mL, 48 h).
`COc1ccc(NC(=O)NCc2cn(Cc3ccc(C)cc3)nn2)cc1` has a viability of 127% (L02; cell growth or viability, CCK-8; 50 µM, 72 h).
`O=c1nc(N2CCN(CC3CCCCC3)CC2)sc2c([N+](=O)[O-])cc(C(F)(F)F)cc12` gave a concentration of 811 ng/mL (CD-1 mouse, lung; oral, 100 mg/kg, 30 min).
`O=C1c2ccccc2C(c2ccccc2)C(=O)N1OCc1ccccc1` (stereo not shown) has a viability of 129% (HFF; cell growth or viability, MTS; 10 µM, 7 days).
With `C1=C/COCc2cc(ccc2OCCN2CCCC2)Nc2nccc(n2)-c2cccc(c2)COC/1` the remaining binding was 100% (HUNK; binding; 0.1 µM).
For `CC(C)n1ncc2c(C(=O)NCC3(C)CNC3)cc(C3CC3)nc21`, the viability was 98.9% (HeLa; cell growth or viability, neutral red; 27.8 µM).
`Cn1cnc2c1c(=O)n(CC(=O)Nc1c(Cl)cccc1Cl)c(=O)n2C` has a viability of 93.8% (Vero; cell growth or viability, MTT; 125 µg/mL).
`CCCCC(=O)Nc1ccc(-c2ccc3ncn(CCC)c(=O)c3c2)cn1` gave a remaining binding of 100% (HUNK; binding, competition with immobilised ligand; 0.5 µM).
The viability of `Cc1ccc(S(=O)(=O)[N](Nc2ccc([N+](=O)[O-])cc2[N+](=O)[O-])[Sn]([Cl])[Cl])cc1` is reported as 86% (HEK293; cell growth or viability, MTT; 31.25 µg/mL).
With `CN(C)C(=O)CN1CCN(c2cnc3c(cc(C(=O)NCc4ccc(Cl)cc4)c(=O)n3CC(=O)N3CC(C)(F)C3)n2)C1=O` the viability was 112% (MRC5; cell growth or viability, CCK-8; 40 µM).
The viability of `O=c1[nH]c2c3c(sc2c(=O)n1O)CCC3` is reported as 130% (HFF; cell growth or viability, MTS; 10 µM, 7 days).
`CNc1ncc2c(/C=C/C(=O)N3CCC(OC)CC3)nn(Cc3cccc(C(F)(F)F)c3)c2n1` gave a remaining activity of 91% (Tyrosine-protein kinase Srms (SRMS, Homo sapiens, UniProt Q9H3Y6); enzyme activity, inhibitor, radiometric; 1 µM).
`O=S(=O)(NNc1nnc(Cl)c2ccccc12)c1ccc(F)cc1` gave a viability of 52.7% (Vero; cell growth or viability, MTT; 125 µg/mL).
The viability of `O=c1[nH]cc(F)c(=O)[nH]1` is reported as 103% (L02; cell growth or viability, CCK-8; 50 µM).
For `COc1cccc(NC(=O)Nc2ccc(Oc3nc4ccccc4n4cnnc34)cc2)c1`, the viability was 98.3% (WISH; cell growth or viability, MTT; 12.5 µM, 24 h).
For `Cc1ccc(S(=O)(=O)NNc2ccc([N+](=O)[O-])cc2[N+](=O)[O-])cc1`, the viability was 79.6% (HEK293; cell growth or viability, MTT; 125 µg/mL).
With `COC(=O)COc1c(Cc2cc(C(C)(C)CC(C)(C)C)cc(-n3nc4ccccc4n3)c2OCC(=O)OC)cc(C(C)(C)CC(C)(C)C)cc1-n1nc2ccccc2n1` the viability was 23.8% (HeLa; cell growth or viability, MTT; 10 µM, 48 h).
`O=c1[nH]c2cc(-c3ccc(Cl)cc3)ccc2c(=O)n1O` has a viability of 87% (HFF; cell growth or viability, MTS; 10 µM, 7 days).
The viability of `COc1cc(/C=C/C(=O)C(=Cc2ccccc2)C(=O)/C=C/c2ccc(O)c(OC)c2)ccc1O` is reported as 10.8% (WRL68; cell growth or viability, MTT; 0.8 µg/mL, 48 h).
With `CCCN(O)N=Nc1ccc(S(=O)(=O)Nc2cc(C)on2)cc1` the inhibition was 61.4% (ABTS scavenging; 300 µg/mL).
With `Cc1ccc(C(CS(=O)(=O)c2ccccc2)=NNC2=NC(=O)C(=NNc3ccccc3)S2)cc1` the viability was 59.1% (WM 266-4; cell growth or viability, MTT; 1.6 µg, 48 h).
For `COc1cccc2c1C(=O)c1c(O)c3c(c(O)c1C2=O)C[C@@](O)(C(=O)CO)C[C@@H]3O[C@H]1C[C@H](N)[C@H](O)[C@H](C)O1`, the viability was 9.97% (SW480; cell growth or viability, MTT; 100 µg/mL).
`COc1cnc2c(cc(C(=O)NCc3ccc(Cl)cc3)c(=O)n2CC(=O)N2CC(C)(F)C2)n1` gave a viability of 76% (MRC5; cell growth or viability, CCK-8; 40 µM).
With `COc1ccc(NC(=O)Nc2ccc(-c3cn(Cc4ccc(C)cc4)nn3)cc2)cc1` the viability was 112% (L02; cell growth or viability, CCK-8; 50 µM, 72 h).
With `CC(=O)Nc1ccc(O)cc1` the viability was 15% (THLE-2; cell growth or viability, MTT; 100 µM, 96 h).
For `O=c1[nH]c2cc(-c3ccccc3)ccc2c(=O)n1O`, the viability was 94% (HFF; cell growth or viability, MTS; 10 µM, 7 days).
For `Cc1cc([C@@H](C)Nc2ccccc2C(=O)O)c2nc(N3CCC(F)(F)CC3)c(C#N)c(=O)n2c1`, the remaining binding was 100% (Serine/threonine-protein kinase PAK 2 (PAK2, Homo sapiens, UniProt Q13177); binding, competition with immobilised ligand; 10 µM).
`O=c1[nH]c2sc(-c3ccccc3)cc2c(=O)n1O` has a viability of 91% (HFF; cell growth or viability, MTS; 10 µM, 7 days).
The viability of `O=C(Nc1ccc(Cl)cc1)Nc1cccc(-c2cn(Cc3cccc(Br)c3)nn2)c1` is reported as 87.5% (L02; cell growth or viability, CCK-8; 50 µM, 72 h).
With `O=c1[nH]c2c3c(sc2c(=O)n1O)CCCC3` the viability was 128% (HFF; cell growth or viability, MTS; 10 µM, 7 days).
`COc1cccc(-c2n[nH]c(SCc3ccccn3)n2)c1OC` gave a concentration of 76.2 ng/mL (male Sprague-Dawley rat, plasma; intravenous, 1 mg/kg, 4 h, single dose).
